{"data": "Published values of several laboratories", "note": "Compare with care: the assays were run in different laboratories. Values joined by “and” are separate records of one study, mostly repeats; a detail may differ. Numbers after ± are the reported error."}
{"SMILES": "CC(C)c1ccc(N(C)c2ccc3c(c2)OCC[C@H]3CNc2cnccc2C(=O)O)cc1", "tested on": "KATO III", "test": "cell viability, CellTiter-Glo", "conditions": "7 days", "measurement": "IC50", "result": "0.0438 µM"}
{"SMILES": "C=C(NC(=O)c1csc(-c2nc3c(cc2O)-c2nc(cs2)C(=O)NC(C(C)O)C(=O)NC(=C(C)OC)c2nc(cs2)C(=O)NC2c4nc(cs4)C(=O)NC(COC(=O)c4c5c6c(cccc6n4O)COC(=O)C(OC4CC(C)(O)C(N(C)C)C(C)O4)C2OC5)c2nc-3cs2)n1)C(N)=O (stereo not shown)", "tested on": "Streptococcus pneumoniae", "system": "-4, penicillin-resistant, mouse systemic infection", "conditions": "intravenous", "how to read": "survival", "measurement": "ED50", "result": "1.96 mg/kg"}
{"SMILES": "COC1CN([C@H]2CC[C@H]([C@@]3(C)Oc4c(Cl)cc(C(=O)NCc5c(SC)cc(C)[nH]c5=O)c(C)c4O3)CC2)C1", "test": "RNA-seq, refers to: GADD45A", "system": "human, whole blood", "conditions": "dose not given, 24 h", "how to read": "baseline: pretreatment baseline", "measurement": "log2 fold change", "result": 1.92}
{"SMILES": "C=CC(=O)N1[C@@H](c2ccc3c(c2)OCO3)c2[nH]c3ccccc3c2C[C@H]1C(=O)N1CCN(C)CC1", "tested on": "human cyclin E1 wild type-3xFLAG:CDK2", "test": "co-IP with TMT proteomics, refers to: HSPA5", "conditions": "concentration not given, P11021", "how to read": "baseline: wild type DMSO", "measurement": "relative co-enrichment", "result": "94%"}
{"SMILES": "C=CC(=O)Nc1cccc(Cn2ncc3cnc(Nc4cnn(CCOC)c4)nc32)c1", "tested on": "CLK1 human", "test": "binding, KINOMEscan", "conditions": "100 nM", "how to read": "lower = stronger binding", "measurement": "percent of control", "result": "91%"}
{"SMILES": "C[n+]1ccc(/C=N/NC(=O)c2cncc(C(=O)N/N=C/c3cc[n+](C)c4ccccc34)n2)c2ccccc21", "tested on": "telomeric G4 DNA hybrid-2", "test": "FRET melting", "conditions": "1 µM, DNA 0.2 µM, with: duplex DNA competitor 10 µM", "measurement": "ΔTm", "result": "23.7 ± 0.8 °C"}
{"SMILES": "Cn1ncc2cc(-c3cncc(Cl)c3N3CCC4(CCNC4=O)CC3)ccc21", "tested on": "LS174T", "test": "gene expression, microarray, refers to: CCL20 mRNA", "conditions": "concentration not given, 4 h", "how to read": "baseline: untreated cells", "measurement": "log2 fold change", "result": 1.46}
{"SMILES": "N=C(N)NCCC[C@@H]1NC(=O)[C@H](CCCNC(=N)N)NC(=O)[C@@H](C(c2ccccc2)c2ccccc2)NC(=O)[C@H](Cc2c[nH]c3ccccc23)NC(=O)[C@@H](C(c2ccccc2)c2ccccc2)NC(=O)[C@@H](CCCNC(=N)N)NC(=O)[C@@H](CCCNC(=N)N)NC1=O", "tested on": "Aspergillus fumigatus", "test": "XTT", "system": "Af 293", "conditions": "2 × MIC, 24 h, pre-formed biofilm", "measurement": "biofilm reduction", "result": "69 to 73%"}
{"SMILES": "COc1cc(O)ccc1CCC(c1ccc(O)cc1)c1cc2c(c(C)c1O)OC(c1ccc(O)cc1)CC2 (mixture of isomers)", "system": "human blood", "conditions": "1 µM, with: A23187", "measurement": "LTB4 level", "result": "2060 ± 1030 pg/mL"}
{"SMILES": "C[n+]1cccc2cc(/C=N/NC(=O)C(=O)N/N=C/c3ccc4c(ccc[n+]4C)c3)ccc21", "tested on": "telomeric G4 DNA hybrid-2", "test": "FRET melting", "conditions": "1 µM, DNA 0.2 µM", "measurement": "ΔTm", "result": "3.1 ± 0.2 °C"}
{"SMILES": "Nc1ncc(-c2cc(-c3cnn(CC(F)(F)F)c3)ncc2F)nc1C(=O)NC1CNCC(F)C1 (stereo not shown)", "tested on": "PFTAIRE2", "test": "KINOMEscan competition binding", "conditions": "1 µM", "how to read": "baseline: DMSO control", "measurement": "remaining binding", "result": "54%"}
{"SMILES": "O=C(N/N=C/c1cc[n+](CC2CC2)c2ccccc12)c1cc(C(=O)N/N=C/c2cc[n+](CC3CC3)c3ccccc23)ncn1", "tested on": "telomeric G4 DNA hybrid-2", "test": "FRET melting", "conditions": "1 µM, DNA 0.2 µM, with: duplex DNA competitor 10 µM", "measurement": "ΔTm", "result": "9.4 ± 0.2 °C"}
{"SMILES": "CC(C)(C)c1cc(-c2ccc3cc4ccccc4nc3n2)nc(-c2ccc3cc4ccccc4nc3n2)c1.Cc1ccncc1.[Cl-].[Cl-].[Ru+2].c1ccc2cc3nc4c5cccnc5c5ncccc5c4nc3cc2c1", "tested on": "B16-F10", "test": "resazurin", "conditions": "with: light 633 nm, 20 mW, 100 J/cm2", "measurement": "EC50", "result": "13.7 µM"}
{"SMILES": "CN1CCCNC(=O)c2cccc(c2)C(=O)NCCCN(C)CCCNc2cccc3c2C(=O)c2cccc(c2C3=O)NCCC1", "tested on": "SAS", "test": "RNA-seq, refers to: THAP7-AS1 mRNA", "conditions": "1 µM, 6 h", "how to read": "baseline: untreated cells", "measurement": "log2 fold change", "result": 1.7}
{"SMILES": "CC(C)(C)c1cc(-c2ccc3cccnc3n2)nc(-c2ccc3cccnc3n2)c1.COc1ccncc1.[Cl-].[Cl-].[Ru+2].c1ccc2cc3nc4c5cccnc5c5ncccc5c4nc3cc2c1", "tested on": "B16-F10", "test": "photocytotoxicity, resazurin", "conditions": "visible light 400-700 nm, 20 mW, 100 J/cm2", "measurement": "EC50", "result": "0.871 µM and 0.87 µM"}
{"SMILES": "O=C(N/N=C/c1ccc2c(ccc[n+]2Cc2ccccc2)c1)c1ccc2ccc(C(=O)N/N=C/c3ccc4c(ccc[n+]4Cc4ccccc4)c3)nc2n1", "tested on": "telomeric G4 DNA hybrid-2", "test": "FRET melting", "conditions": "1 µM, DNA 0.2 µM, with: duplex DNA competitor 10 µM", "measurement": "ΔTm", "result": "19.2 ± 0.9 °C"}
{"SMILES": "CNS(=O)(=O)Nc1nccc(Cc2c(C)c3ccc(Oc4ncccc4F)cc3oc2=O)c1F", "tested on": "NCCIT", "test": "cell viability", "conditions": "7 days", "measurement": "IC50", "result": "0.858 µM"}
{"SMILES": "O=C(N/N=C/c1cc[n+](CC2CC2)c2ccccc12)c1ccc2ccc3ccc(C(=O)N/N=C/c4cc[n+](CC5CC5)c5ccccc45)nc3c2n1", "tested on": "telomeric G4 DNA hybrid-2", "test": "FRET melting", "conditions": "1 µM, DNA 0.2 µM, with: duplex DNA competitor 10 µM", "measurement": "ΔTm", "result": "29.4 ± 0.6 °C"}
{"SMILES": "CC(=O)[O-].O.O.O.O.[Co+2].[O-]c1ccc(Br)cc1C=NCCN1CCOCC1", "test": "FRAP", "conditions": "40 µM", "measurement": "ferric reducing power", "result": "10.6%"}
{"SMILES": "O=C(N/N=C/c1ccc2c(ccc[n+]2Cc2ccccc2)c1)c1cc(C(=O)N/N=C/c2ccc3c(ccc[n+]3Cc3ccccc3)c2)ncn1", "tested on": "telomeric G4 DNA hybrid-2", "test": "FRET melting", "conditions": "1 µM, DNA 0.2 µM, with: duplex DNA competitor 10 µM", "measurement": "ΔTm", "result": "10 ± 5.4 °C"}
{"SMILES": "Cc1ncsc1-c1ccc(C(C)NC(=O)C2CC(O)CN2C(=O)C(NC(=O)CCCCCCCCCCN2CCCC(Nc3ncc(Cl)c(Nc4ccccc4S(=O)(=O)C(C)C)n3)C2)C(C)(C)C)cc1 (stereo not shown)", "tested on": "22Rv1", "test": "RNA-seq, refers to: RRP7BP mRNA", "conditions": "concentration not given", "how to read": "baseline: DMSO", "measurement": "log2 fold change", "result": -1.2}
{"SMILES": "C[n+]1ccc(/C=N/NC(=O)c2ccc3ccc(C(=O)N/N=C/c4cc[n+](C)cc4)nc3n2)cc1", "tested on": "telomeric G4 DNA hybrid-2", "test": "FRET melting", "conditions": "1 µM, DNA 0.2 µM", "measurement": "ΔTm", "result": "10.7 ± 1.5 °C"}
{"SMILES": "c1ccc(-c2n[nH]cc2-c2ccnc3ccccc23)nc1", "tested on": "SAT4 (Candida albicans)", "test": "kinase binding, MIB/MS competition", "system": "Candida albicans lysate", "conditions": "1 µM", "how to read": "baseline: DMSO", "measurement": "log2 fold change", "result": 0.11}
{"SMILES": "O=C(N/N=C/c1ccc(C[n+]2ccccc2)cc1)c1ccc2ccc(C(=O)N/N=C/c3ccc(C[n+]4ccccc4)cc3)nc2n1", "tested on": "telomeric G4 DNA hybrid-2", "test": "FRET melting", "conditions": "1 µM, DNA 0.2 µM", "measurement": "ΔTm", "result": "16.5 ± 0.4 °C"}
{"SMILES": "Cc1ccncc1.[Cl-].[Cl-].[Ru+2].c1cc(-c2ccc3cccnc3n2)nc(-c2ccc3cccnc3n2)c1.c1ccc2cc3nc4c5cccnc5c5ncccc5c4nc3cc2c1", "tested on": "B16-F10", "test": "resazurin", "conditions": "with: light 633 nm, 100 J/cm2", "how to read": "baseline: dark EC50 over light EC50", "measurement": "phototoxicity index", "result": 39}
{"note": "Repeated from above:"}
{"SMILES": "COC1CN([C@H]2CC[C@H]([C@@]3(C)Oc4c(Cl)cc(C(=O)NCc5c(SC)cc(C)[nH]c5=O)c(C)c4O3)CC2)C1", "test": "RNA-seq, refers to: GADD45A", "system": "human, whole blood", "conditions": "dose not given, 24 h", "how to read": "baseline: pretreatment baseline", "measurement": "log2 fold change", "result": 1.92}
{"SMILES": "C=CC(=O)N1[C@@H](c2ccc3c(c2)OCO3)c2[nH]c3ccccc3c2C[C@H]1C(=O)N1CCN(C)CC1", "tested on": "human cyclin E1 wild type-3xFLAG:CDK2", "test": "co-IP with TMT proteomics, refers to: HSPA5", "conditions": "concentration not given, P11021", "how to read": "baseline: wild type DMSO", "measurement": "relative co-enrichment", "result": "94%"}
{"SMILES": "C=CC(=O)Nc1cccc(Cn2ncc3cnc(Nc4cnn(CCOC)c4)nc32)c1", "tested on": "CLK1 human", "test": "binding, KINOMEscan", "conditions": "100 nM", "how to read": "lower = stronger binding", "measurement": "percent of control", "result": "91%"}
